Assay results of several laboratories.
Compare with care: the assays were run in different laboratories. “And” joins repeats or separate records; there may be more than shown. Numbers after ± are the reported error.

SMILES	assay	system	setting	scale	measurement	result
Cl.[2H]C([2H])([2H])CC(=O)c1cnc(NC(=O)C2CC2)cc1Nc1cccc(-c2ncn(C([2H])([2H])[2H])n2)c1OC	geometric mean	human	oral, 17.5 mg single dose, fasted, liquid		elimination rate constant	2.44e-05 s⁻¹
O=C(COc1ccc(Cl)cc1)NC12CC(c3nnc([C@H]4C[C@@H](OC(F)(F)F)C4)o3)(C1)C2	item: Myalgia	healthy humans, both sexes	oral, 100 mg, single ascending dose	reference: subjects	treatment-emergent adverse events	16.7%
CN1CCN(c2cccc3c2CCN(C(=O)/C=C/c2c(-n4cnnn4)ccc(Cl)c2F)[C@@H]3C(=O)Nc2ccc(C(=O)O)cc2)C(=O)C1		healthy human subjects	intravenous infusion, 9 mg/h, 5 days		subjects with infusion site pain	0%
CCc1cc(C(=O)NC)c2nccc(N3CCc4c(cc(Cn5ccnc5)cc4-c4cn(C)nc4C(F)(F)F)C3=O)c2c1	item: CK	Sprague Dawley rat	oral, 100 mg/kg once daily, 7 days	reference: vehicle	change in clinical chemistry or haematology parameter	-26.8%
CN(C(=O)n1cnc(-c2ccc[n+]([O-])c2)c1)[C@H]1CC[C@H](O)CC1		Wistar rat, medulla oblongata	oral, 10 mg/kg of BIA 10-2474, 4 h, single dose		concentration	13.7 ± 0.5 ng/g
O=C(Nc1nc2cccc(-c3ccc(CN4CCS(=O)(=O)CC4)cc3)n2n1)C1CC1	item: pyrexia	rheumatoid arthritis patients	oral, 300 mg once daily, 4 weeks, any relatedness		treatment-emergent adverse events	5%
COc1ccc2[nH]c([S+]([O-])Cc3ncc(C)c(OC)c3C)nc2c1 (stereo not drawn)		healthy Chinese volunteers, plasma	oral, 20 mg, fasted, all CYP2C19 genotypes		Cmax	661 ± 583 ng/mL
CN1C(=O)[C@@H](NC(=O)c2nnc(Cc3ccccc3)[nH]2)COc2cccnc21	phase I single ascending dose	human, male and female	oral, 100 mg, fasted		TEAE leading to permanent discontinuation	0%
NC1(C(=O)N[C@@H](CCO)c2ccc(Cl)cc2)CCN(c2nc[nH]c3nccc2-3)CC1		metastatic CRPC patients	dose not given, any grade, treatment-related, all doses, together with: enzalutamide 160 mg daily		incidence of Stomatitis	6.7%
Cn1ncnc1[C@H]1c2n[nH]c(=O)c3cc(F)cc(c23)N[C@@H]1c1ccc(F)cc1		human patients, plasma	oral, 400 µg/m2 twice daily, day 1, monotherapy, dose level DL2, median		AUC(0-8h)	0.0073 µg·h/mL
CCCOc1ccc(NC(=O)CN2CCN(C)CC2)cc1-c1nc(CC)c(CC)c(=O)[nH]1		healthy Chinese men	10 mg, together with: placebo	reference: baseline	maximal increase in pulse rate	17.6 ± 10.2 bpm
CCN1/C(=C/C(C)=O)Sc2ccc(F)cc21		cynomolgus monkey	oral, 10 mg/kg, 1 h post-dose	reference: pre-dose	heart rate change	107 ± 18.9%
Cc1cnc(N2CC3(CCOCC3)C2)c(C(=O)Nc2ccc(C(=O)N3CCc4cc(C(=O)Nc5c(C)cccc5F)sc4-c4ccccc43)cc2)c1		rat plasma			fu	0.01
O=C(O)CCCOc1ccc([18F])cc1-c1cc(-c2ccccc2C(F)(F)F)n(-c2ccccc2)n1	gamma counting	male ddY mice, brain	intravenous, 2.1 MBq, 1 min		radioactivity uptake	0.12 ± 0.06 SUV
NC(=O)c1[nH]cnc1N		human patients, plasma	IV infusion over 1 h, 1000 mg/m^2 DTIC, cycle 2 day 1, co-administered with co-drug		AUC(0-8h)	5.51 µg·h/mL
COc1ccc2c(c1)CN(C(=O)CCN1CCC(Cc3ccccc3)CC1)CC[S@@+]2[O-]	telemetry	conscious male beagle dogs	intravenous, 2 mg/kg, 4 h		QT interval	224 ± 11 ms
COc1cc2c(Nc3ccc(Cl)c(Cl)c3F)ncnc2cc1OC[C@@H]1C[C@@H]2CN(C)C[C@@H]2C1		FVB Mdr1a/b(-/-) Bcrp1(-/-) mouse	oral, 70 mg/kg, 2 h		unbound plasma concentration	31.5 ng/mL
CN(CCC#N)C(=O)c1ccc([C@H]2[C@@H](F)[C@@H](F)C[C@@H](F)[C@H]2F)cc1	liver microsome stability	mouse liver microsomes	1 µM		hepatic clearance	43 mL/min/kg
CC[C@@H]([C@H](C)O)n1ncn(-c2ccc(N3CCN(c4ccc(OC[C@@H]5CO[C@@](Cn6cncn6)(c6ccc(F)cc6F)C5)cc4)CC3)cc2)c1=O		rat plasma	800 ng/mL, three freeze-thaw cycles	reference: nominal concentration	stability relative error	-12.8%

SMILES	assay	system	setting	scale	measurement	result
O=C(Cc1cccnc1)Nc1ccc([C@H]2[C@@H](F)[C@@H](F)C[C@@H](F)[C@H]2F)cc1		cryopreserved human hepatocytes	1 µM		hepatic clearance	6.2 mL/min/kg
CCOc1ccc2ccc(=O)oc2c1		human liver microsomes	1 µM, 60 min, pH 7.4, together with: with cofactors		remaining compound	17.1%
CCO[C@H]1CCN(Cc2c(OC)cc(C)c3[nH]ccc23)[C@H](c2ccc(C(=O)O)cc2)C1		PNH patients, active haemolysis	oral, 200 mg, 8 weeks, treatment		incidence of dyspepsia	0%
C[C@H](NC(=O)/C(C#N)=C/c1cccc(Br)n1)c1ccccc1	LC-MS/MS	patients, plasma	oral, 1 mg/kg, cycle 1 day 1		half-life	1.3 h
Cc1c(C(=O)O)ccc2c3n(nc12)[C@@H]1[C@H](C3)N(CC2CC2)[C@@]2(C(=O)Nc3cc(Cl)ccc32)[C@H]1c1cccc(Cl)c1F		female BALB/c nude mice, SJSA-1 xenograft, plasma	oral, 1 mg/kg twice daily, 9 h		plasma concentration	1330 nM
COc1cc(Nc2ncc3c(n2)-c2ccc(Cl)cc2C(c2c(F)cccc2OC)=NC3)ccc1C(=O)O	item: Hypophosphatemia, all grades	cancer patients, phase 1/2	oral, dose not given, together with: pembrolizumab		patients with adverse event	17%
C=CC(=O)NC1CCN(c2ncc3ncnc(Nc4ccc(Oc5ccc6c(c5)ncn6C)c(C)c4)c3n2)CC1		human, male, plasma	oral, 240 mg single dose, fasted, geometric mean		AUC(0-tz)	47 µM·h
CN1CCN(C(=O)c2ccc([C@H]3[C@@H](F)[C@@H](F)C[C@@H](F)[C@H]3F)cc2)CC1	liver microsome stability	human liver microsomes	1 µM, without NADPH		hepatic clearance	3.9 mL/min/kg
Cc1cc(C)c(CNC(=O)c2cc(Cl)c3c(c2C)O[C@@](C)([C@H]2CC[C@H](N(C)C)CC2)O3)c(=O)[nH]1	CTCAE v4.0, item: neutrophil count decreased	human relapsed/refractory NHL	oral, 200 mg once daily, onset after cycle 1 day 1, overall treatment period		patients with TEAE	25%
CCn1c(C(=O)N(C2CC2)C2CC2)cc2c3c(ncn3C)c(Nc3cc(C)n(C)n3)nc21		cancer patients	oral, 200 mg twice daily, day 15, 342.0 h		plasma concentration	5890 ng/mL
COc1ccnc(C(=O)NCC(=O)O)c1O	soil adsorption	clay loam soil	pH 7.2, organic carbon 4.4 %		KFoc	159 mL/g
O=C(Nc1ccc(OC(F)(F)Cl)cc1)c1cnc(N2CC[C@@H](O)C2)c(-c2ccn[nH]2)c1	per treatment cycle, item: absolute neutrophil decrease	human patients	oral, dose not given, 28 day cycle		grade ≥3 event rate	4.3%
C=CCN1CC(=O)N2[C@@H](Cc3ccc(O)cc3F)C(=O)N(Cc3cccc(N4CC(N5CCN(CC)CC5)C4)n3)C[C@@H]2N1C(=O)NCc1ccccc1		advanced solid tumour patients	oral, 100 mg twice daily, grade ≥3, dose-escalation		treatment-related AST increased	0%
N#Cc1ccc2c(c1)[C@H]1CCCN(C(=O)c3ccc4[nH]cnc4c3)[C@H]1C2		human	240 mg, end of trial		minimum ACTH level	2 pmol/L
Cc1cn(C(=O)c2c(-c3c(Cl)cc(Cl)cc3Cl)noc2C(C)(C)F)c2cccc(/C=C/C(=O)O)c12		human patients	500 mg bid, cycle 1 day 1		AUC(0-8h)	86.7 µg·h/mL
Cc1cc(-c2nnc(N)nc2-c2ccc(F)cc2)cc(Cl)n1	item: Fatigue	human phase Ia/Ib colorectal cancer, immunotherapy-naive	oral, dose not given		patients with treatment-related adverse events	36%
CC(C)C[C@H](NC(=O)[C@H](N)C(C)C)C(=O)N[C@@H](CCCNC(=N)N)C(=O)N[C@@H](Cc1c[nH]c2ccccc12)C(=O)N[C@@H](CO)C(=O)N[C@@H](CCCNC(=N)N)C(=O)N[C@@H](CCCCN)C(=O)N[C@@H](CC(C)C)C(=O)N1CCC[C@H]1C(=O)N[C@@H](CS)C(=O)N[C@H](C(=O)N[C@@H](CO)C(N)=O)C(C)C	12G5 competition, SUP-T1 cells	human plasma	concentration not given, 8 h		remaining activity	60 ± 4%
NC(=O)CCNC(=O)c1ccc([C@H]2[C@@H](F)[C@@H](F)C[C@@H](F)[C@H]2F)cc1	liver microsome stability	cynomolgus liver microsomes	1 µM		hepatic clearance	4.9 mL/min/kg
Cl.N=C(CC(O)c1cc2c(F)cc(F)cc2c2cc(C(F)(F)F)ccc12)Nc1ccc(Br)cc1 (stereo not drawn)		human plasma	2.5 ng/mL, 24 h, 37 °C		degradation	43.5%

SMILES	assay	system	setting	scale	measurement	result
CNCc1ccc(-c2[nH]c3cc(F)cc4c3c2CCNC4=O)cc1		human patients	oral, 600 mg twice daily, grade 1		pulmonary embolism incidence	0%
O=C(O)CCC(=O)O.[2H]C([2H])([2H])Oc1cc(C)c2[nH]ccc2c1CN1CC[C@@H](C2CC2)C[C@H]1c1ccc(C(=O)O)cc1		healthy Chinese subjects	600 mg, single ascending dose		TEAE elevated blood triglycerides	16.7%
CN1CCN(C(=O)c2ccc(C3CCCCC3)cc2)CC1=O	liver microsome stability	mouse liver microsomes	1 µM		hepatic clearance	71 mL/min/kg
O=C(c1ccc(F)cc1)C1CCN(CCn2c(=O)[nH]c3ccccc3c2=O)CC1		human liver microsomes			intrinsic clearance	45.3 mL/min/kg
O=C([O-])CN1CCN(CC(=O)[O-])CCN([C@H](CO)[C@H](O)CO)CCN(CC(=O)[O-])CC1.[Gd+3] (racemic)	ICP-MS	rat, femur epiphysis	intravenous, 0.6 mmol Gd/kg, 1 week		Gd concentration	1.2 nmol/g
C[C@]12CC[C@@H]3c4ccc(O)cc4CC[C@H]3[C@@H]1CCC2=O		cow whole milk	20 nM	reference: milk fat over skim milk	milk fat partition ratio	69
Cc1cc(Nc2ccc(S(F)(F)(F)(F)F)cc2)n2nc(C(C)(F)F)nc2n1	LC-MS/MS	human vivax malaria patients, plasma	oral, 800 mg, mean		AUC(0-168 h)	1080 µg·h/mL
CCCCCNC(=O)N1CCC(CN(Cc2ccc(Cl)cc2)Cc2ccc([N+](=O)[O-])s2)C1 (stereo not drawn)	item: RDW	C57BL/6 mouse, blood	100 mg/kg twice daily, 7 days		blood cell fraction	17 ± 0.5%
CC(C)(C(=O)N1CCOc2c(C#N)cncc2C1)C(F)F	item: contact dermatitis	human	oral, 20 mg twice daily, 14 days, multiple ascending dose		subjects with adverse event	25%
C[C@@H](Nc1cc(F)cc(F)c1)c1cc(C(=O)N(C)C)cc2c(=O)cc(N3CCOCC3)oc12	item: Hypersensitivity	advanced solid tumour patients	oral, dose not given, dose expansion		related serious adverse events	0%
CCOc1c([C@H](C)n2nc(C)c3c(N)ncnc32)cc(Cl)c(F)c1[C@@H]1CNC(=O)C1		patients with B-cell malignancies, plasma	oral, 10 mg once daily, cycle 1 day 15, monotherapy		Cmin	98 nM
NC(=O)CCNC(=O)c1ccc(C2CCCCC2)cc1	liver microsome stability	human liver microsomes	1 µM, without NADPH		hepatic clearance	3.9 mL/min/kg
C[Si](C)(C)O[Si](C)(C)O[Si](C)(C)C	IVIVE from S9	rainbow trout (Oncorhynchus mykiss)			hepatic biotransformation rate constant	0.298 h⁻¹ and 0.265 h⁻¹ and 0.297 h⁻¹
CC(C)Cn1cnc2c(N)nc3ccccc3c21		C57BL/6J mice, female, solvent-treated, liver microsomes	1 µM, 45 min		remaining compound	~10%
CC[C@H](C)[C@@H]1NC(=O)[C@@](C)(NC(=O)[C@H](CCCNC(=N)N)NC(=O)[C@H](CC(C)C)NC(=O)[C@@H](NC(=O)[C@H](CCC(N)=O)NC(=O)[C@H](CC(C)C)NC(C)=O)[C@@H](C)O)CCCC=CCCC[C@@](C)(C(=O)N[C@@H](CC(C)C)C(=O)N[C@@H](Cc2ccc3ccccc3c2)C(N)=O)NC(=O)[C@H](CCCNC(=N)N)NC(=O)[C@H](CCC(N)=O)NC1=O		BALB/c mouse, plasma	iv, 5 mg/kg, 36 h		clearance	0.783 mL/min/kg
COCCC(=O)Nc1ccc(C2CCCCC2)cc1	liver microsome stability	mouse liver microsomes	1 µM		hepatic clearance	87 mL/min/kg
CNC(=O)c1ccc(-c2cnc3ncc(Cc4ccc5ncccc5c4)n3n2)cc1F		human moderate hepatic impairment	oral, 200 mg single dose, adjusted geometric mean		unbound AUC(0-t)	0.18 µg·h/mL
COc1ccnc(C(N)=O)c1O	soil adsorption	tested soils	geometric mean		KFoc	669 mL/g
O=C(Cc1cccnc1)Nc1ccc(C2CCCCC2)cc1		cryopreserved human hepatocytes	1 µM		hepatic clearance	16 mL/min/kg

Some of these lines once more:
SMILES	assay	system	setting	scale	measurement	result
C=CCN1CC(=O)N2[C@@H](Cc3ccc(O)cc3F)C(=O)N(Cc3cccc(N4CC(N5CCN(CC)CC5)C4)n3)C[C@@H]2N1C(=O)NCc1ccccc1		advanced solid tumour patients	oral, 100 mg twice daily, grade ≥3, dose-escalation		treatment-related AST increased	0%
O=C(Nc1nc2cccc(-c3ccc(CN4CCS(=O)(=O)CC4)cc3)n2n1)C1CC1	item: pyrexia	rheumatoid arthritis patients	oral, 300 mg once daily, 4 weeks, any relatedness		treatment-emergent adverse events	5%
CC(C)(C(=O)N1CCOc2c(C#N)cncc2C1)C(F)F	item: contact dermatitis	human	oral, 20 mg twice daily, 14 days, multiple ascending dose		subjects with adverse event	25%
COc1cc(Nc2ncc3c(n2)-c2ccc(Cl)cc2C(c2c(F)cccc2OC)=NC3)ccc1C(=O)O	item: Hypophosphatemia, all grades	cancer patients, phase 1/2	oral, dose not given, together with: pembrolizumab		patients with adverse event	17%
COc1cc2c(Nc3ccc(Cl)c(Cl)c3F)ncnc2cc1OC[C@@H]1C[C@@H]2CN(C)C[C@@H]2C1		FVB Mdr1a/b(-/-) Bcrp1(-/-) mouse	oral, 70 mg/kg, 2 h		unbound plasma concentration	31.5 ng/mL
CNCc1ccc(-c2[nH]c3cc(F)cc4c3c2CCNC4=O)cc1		human patients	oral, 600 mg twice daily, grade 1		pulmonary embolism incidence	0%
C[C@H](NC(=O)/C(C#N)=C/c1cccc(Br)n1)c1ccccc1	LC-MS/MS	patients, plasma	oral, 1 mg/kg, cycle 1 day 1		half-life	1.3 h
COc1ccnc(C(N)=O)c1O	soil adsorption	tested soils	geometric mean		KFoc	669 mL/g
CNC(=O)c1ccc(-c2cnc3ncc(Cc4ccc5ncccc5c4)n3n2)cc1F		human moderate hepatic impairment	oral, 200 mg single dose, adjusted geometric mean		unbound AUC(0-t)	0.18 µg·h/mL
